# Measured values from different studies.
# Numbered parts are unrelated; each lists some results of a single study.

# Set 1
# Target: RNA binding protein fox-1 homolog 2, RRM domain, GST-SBP tag (RBFOX2, Homo sapiens, UniProt O43251-10, residues 100-194)
# Method: RNA Bind-n-Seq
# Molecule type: RNA
# Medium: in vitro
# Concentration: 365 nM
# Setting: natural RNA segment, single round, ends assumed
# Relative to: no-protein control
# Reading: higher = stronger binding
# All sequences stand within: GGGAGUUCUACAGUCCGACGAUC … UGGAAUUCUCGGGUGCCAA
# Target sequence (chain): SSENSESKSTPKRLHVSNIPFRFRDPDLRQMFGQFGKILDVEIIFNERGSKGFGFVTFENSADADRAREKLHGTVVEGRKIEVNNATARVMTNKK
Sequence,RBNS enrichment (R)
AUAACAGGACCUUUAGUAAGCAUACUUUAAUCAGUUUUUCUCCUUGAAUUAAUCUUUUCUCUUAAUUUUUAUUAUGUACUAGUUGUAUUAAAGCUAAUGUGUUUACUUUU,0.697
UUCUCUAGUUCCCUGGCUCAGUAGGACAUUUCUUCCACCCACUCCCAGUCCCCCAACACUCCCUUCUUCGGAUACAGGUGCCAAAGAACAUUGUGAAGAAAUGAAGAACC,0.3
ACAGUCCAAAGAGACUUUGCAAAACAUGAUAGGCAGGGACCUUUUCCUCUGUGUUUCAAUACCUAUAUACCUAUUGAACAAAGCAGUAGGUAGACAUUUCCUAAAGUUGA,0.29
GUCUGAUGAGCAUUUCUGUUGCUUCCAUCAGCCAGAGCUCUGCCAAAGGCCCCGCAUCCCCAUCCUAGGAGUGCCCUAGAGACAAUUAAAUGUCCAUUCCUCUGGUGCUG,0.508
AGGACCAGAGAAAGCCAGGCUGGAUCGUCACAUGCCGGGGAGCAAUGUGGAUGGCCUGGGGACUCCUGGGUUUUCUCCCUCCCGACUCCCUAAUAAACCCCGUGAACCUU,0.526
GGGAAUCCAGGCCCAGCAAGAGACAUGCCAAUGGCGACUGUAGGUCCCUCCAUGUGUGCUGACUCCAGACAACCGACCUUCCAGUGUCCCAAAGUUCUUCCAUGUUUUUA,0.702
UUAGAUUGCUCUUUGGUCCCAGCUCAUGUUCAUCACUCCCUUCAAAGCCUUUCUUCCUUUAUAUCUUCUGACUGAGCUCUCCCUGAUUGACAUCACCUCAUGCGAUGACC,0.864
CCCUCUCCUAGCACUGUACCUUUACCCAGCGAGUCCCCACACUGUGGUCUUCUUGCACAGUGUGUGGCAGUUGAGAAAGCCUAGAAAAGGUGCCCAUUUGACCACUGUGA,0.37

# Set 2
# Target: Sal-like protein 4, full length isoform A (SALL4, Homo sapiens, UniProt Q9UJQ4, residues 1-1053)
# UniProt Q9UJQ4, sequence (whole entry, looked up): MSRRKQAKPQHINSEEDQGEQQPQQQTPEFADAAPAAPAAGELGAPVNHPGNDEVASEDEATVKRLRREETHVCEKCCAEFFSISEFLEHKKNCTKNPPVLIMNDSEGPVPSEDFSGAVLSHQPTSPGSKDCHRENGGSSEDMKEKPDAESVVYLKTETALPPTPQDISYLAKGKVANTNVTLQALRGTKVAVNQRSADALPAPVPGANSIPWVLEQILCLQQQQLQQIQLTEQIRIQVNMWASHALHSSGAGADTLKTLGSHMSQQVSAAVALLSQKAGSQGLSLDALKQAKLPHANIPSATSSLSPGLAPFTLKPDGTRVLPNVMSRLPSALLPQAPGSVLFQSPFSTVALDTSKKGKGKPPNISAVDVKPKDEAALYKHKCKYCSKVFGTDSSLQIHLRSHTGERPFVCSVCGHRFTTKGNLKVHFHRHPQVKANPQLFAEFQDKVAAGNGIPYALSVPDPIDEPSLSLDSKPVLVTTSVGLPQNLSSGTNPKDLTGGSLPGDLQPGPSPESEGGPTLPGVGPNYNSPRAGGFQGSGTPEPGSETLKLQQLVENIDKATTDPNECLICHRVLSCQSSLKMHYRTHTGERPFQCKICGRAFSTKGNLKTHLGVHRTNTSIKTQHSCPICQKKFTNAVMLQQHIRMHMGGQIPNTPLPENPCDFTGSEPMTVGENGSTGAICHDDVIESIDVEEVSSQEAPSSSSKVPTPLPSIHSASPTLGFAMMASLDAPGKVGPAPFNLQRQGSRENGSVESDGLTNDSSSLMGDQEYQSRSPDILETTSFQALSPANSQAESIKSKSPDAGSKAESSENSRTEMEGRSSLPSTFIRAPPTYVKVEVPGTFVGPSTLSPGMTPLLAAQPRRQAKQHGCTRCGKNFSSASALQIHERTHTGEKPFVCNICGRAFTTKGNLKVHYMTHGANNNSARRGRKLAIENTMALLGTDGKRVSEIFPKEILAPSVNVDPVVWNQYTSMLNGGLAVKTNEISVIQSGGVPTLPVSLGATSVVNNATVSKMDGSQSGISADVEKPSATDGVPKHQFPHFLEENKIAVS
# Method: universal PBM
# Molecule type: double-stranded DNA, one strand shown
# Medium: in vitro
# Concentration: 600 nM
# Setting: 8-mer, flanks averaged, mean of replicates
# Reading: higher = stronger binding
Sequence,E-score
AACAACAG,0.0798
AGCAGCGC,-0.294
AGGTTAGG,-0.07
GCCAGCTA,-0.289
CGGTGTCA,-0.195
AGTATCAG,-0.0192
CCAGAAGC,-0.162
AATAGCTA,0.307

# Set 3
# Substance: PhoQ, residues 284 288 289 292 302 303 SVTLVV
# Method: Sort-seq
# Item: YFP reporter
# Medium: E. coli
# Setting: PhoQ-PhoP variant library
# With: 10 µM Mg2+
# Relative to: high Mg2+ state
# Reading: higher = stronger signaling
target,fold induction
"PhoP, residues 12 14 15 18 19 TQALL (Escherichia coli, UniProt P23836)",21.5
"PhoP, residues 12 14 15 18 19 NYFRM (Escherichia coli, UniProt P23836)",6.6
"PhoP, residues 12 14 15 18 19 QYFSL (Escherichia coli, UniProt P23836)",3.35

# Set 4
# Target: Histone acetyltransferase KAT6A, winged helix 1, GST fusion (KAT6A, Homo sapiens, UniProt Q92794, residues 1-85)
# Method: protein binding microarray
# Molecule type: double-stranded DNA, one strand shown
# Medium: in vitro
# Concentration: not given
# Setting: 8-mer, flanks averaged, mean of 2 arrays, mostly near background
# Relative to: not given
# Reading: higher = stronger binding
# Construct (chain): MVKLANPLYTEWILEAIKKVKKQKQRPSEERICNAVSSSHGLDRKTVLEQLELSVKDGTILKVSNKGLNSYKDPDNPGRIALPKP
Sequence,E-score
AGCGACTA,-0.0915
ACGGGCAC,0.161
CTTGAATA,-0.0857
GCCTGCCC,0.0715
ACGTGGGA,-0.186
GCGCCTTA,0.283
ACGTATGA,-0.00698
CCCTAAAA,-0.114
CATCGATA,-0.0429

# Repeated from above (set 1):
Sequence,RBNS enrichment (R)
AUAACAGGACCUUUAGUAAGCAUACUUUAAUCAGUUUUUCUCCUUGAAUUAAUCUUUUCUCUUAAUUUUUAUUAUGUACUAGUUGUAUUAAAGCUAAUGUGUUUACUUUU,0.697
GGGAAUCCAGGCCCAGCAAGAGACAUGCCAAUGGCGACUGUAGGUCCCUCCAUGUGUGCUGACUCCAGACAACCGACCUUCCAGUGUCCCAAAGUUCUUCCAUGUUUUUA,0.702
UUAGAUUGCUCUUUGGUCCCAGCUCAUGUUCAUCACUCCCUUCAAAGCCUUUCUUCCUUUAUAUCUUCUGACUGAGCUCUCCCUGAUUGACAUCACCUCAUGCGAUGACC,0.864
